Results of several laboratories.
Each numbered part is a random draw from the data of one study; scales do not carry over between parts. Several values in a cell are separate wells, animals, samples, runs or records.
Sequence of UniProt Q96SW2 (whole entry, looked up): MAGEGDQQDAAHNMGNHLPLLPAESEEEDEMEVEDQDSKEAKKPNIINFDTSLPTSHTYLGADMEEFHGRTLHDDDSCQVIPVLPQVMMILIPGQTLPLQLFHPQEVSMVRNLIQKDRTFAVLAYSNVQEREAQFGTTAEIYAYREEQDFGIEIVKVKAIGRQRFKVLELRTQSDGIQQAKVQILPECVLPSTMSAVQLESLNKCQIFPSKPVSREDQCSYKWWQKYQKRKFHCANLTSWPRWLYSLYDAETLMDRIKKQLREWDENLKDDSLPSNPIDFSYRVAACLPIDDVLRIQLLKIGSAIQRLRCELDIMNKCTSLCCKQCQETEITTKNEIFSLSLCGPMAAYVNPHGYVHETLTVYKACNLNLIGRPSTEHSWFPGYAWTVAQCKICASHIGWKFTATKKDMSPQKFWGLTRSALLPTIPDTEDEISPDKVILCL

Set 1 — cell line: U-87 MG; concentration: concentration not given; relative to: DMSO
Structure (SMILES): CCN1/C(=C/C=C2\CCCC(/C=C/C3=[N+](CC)c4ccccc4C3(C)C)=C2NCCCCCCCCN2CCC(Nc3nc4ccccc4n3Cc3ccc(F)cc3)CC2)C(C)(C)c2ccccc21
item: KDELR3 mRNA — “log2 fold change”: -1.43.
It gave 0.919 for “log2 fold change” (item: FAM171B mRNA).
The “log2 fold change” was -0.897 (item: SLC9A3R2 mRNA).
For item: AK9 mRNA: “log2 fold change” read 1.08.
For item: ASB7 mRNA: “log2 fold change” read 0.889.
It gave 1.13 for “log2 fold change” (item: ZNF222 mRNA).
The “log2 fold change” was -1.3 (item: ACSF2 mRNA).
It gave 3.08 for “log2 fold change” (item: ATF3 mRNA).
The “log2 fold change” was -1.59 (item: STXBP6 mRNA).
The “log2 fold change” was -0.983 (item: PODXL mRNA).
The “log2 fold change” was 1.21 (item: OSGIN2 mRNA).
For item: CLIP4 mRNA: “log2 fold change” read 1.11.
item: CNST mRNA — “log2 fold change”: 1.54.
The “log2 fold change” was -1.86 (item: COL5A2 mRNA).
The “log2 fold change” was -0.978 (item: DAG1).
For item: HCAR3 mRNA: “log2 fold change” read 5.42.

Set 2
SMILES: Cc1ccc(O)c(C)c1-c1cnc2[nH]c(-c3cnc(N4CCC5(CC4)CC(N4CCN(c6ccc(N[C@H]7CCC(=O)NC7=O)cc6F)CC4)CO5)nc3)cc2c1C#N (single isomer, unassigned)
PKMYT1: Membrane-associated tyrosine- and threonine-specific cdc2-inhibitory kinase (PKMYT1, Homo sapiens, UniProt Q99640)
Sequence of UniProt Q99640 (whole entry, looked up): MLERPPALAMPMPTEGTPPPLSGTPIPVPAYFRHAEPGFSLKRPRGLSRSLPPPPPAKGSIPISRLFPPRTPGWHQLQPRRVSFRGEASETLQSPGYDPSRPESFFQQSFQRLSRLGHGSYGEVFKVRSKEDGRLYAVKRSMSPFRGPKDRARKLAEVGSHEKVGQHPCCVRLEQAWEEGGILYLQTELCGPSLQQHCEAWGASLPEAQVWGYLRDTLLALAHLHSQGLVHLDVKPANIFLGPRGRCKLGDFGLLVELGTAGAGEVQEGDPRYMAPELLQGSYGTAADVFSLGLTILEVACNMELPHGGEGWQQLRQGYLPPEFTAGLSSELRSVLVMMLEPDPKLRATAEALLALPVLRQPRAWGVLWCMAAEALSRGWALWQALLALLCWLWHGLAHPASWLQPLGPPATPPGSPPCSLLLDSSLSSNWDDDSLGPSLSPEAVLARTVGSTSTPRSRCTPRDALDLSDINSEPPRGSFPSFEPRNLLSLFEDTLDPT
HCC1569; cell proliferation; 10000 nM — inhibition: 92.4%.
For PKMYT1; 0.04115 µM: inhibition read 92.3%.
U-251 MG; cell growth; 30000 nM — inhibition: 91%.
The inhibition was 79.4% (HCC1569; automated capillary immunoblot, item: CDK1 phospho-Thr14; 100 nM, 8 h).
HCC1806; cell proliferation; 13.72 nM — inhibition: -0.87% and 7% and 5.18%.
For PKMYT1; enzyme activity, inhibitor; 41.15 nM: inhibition read 94%.
BRAF; KINOMEscan; 1000 nM — inhibition: 86%.
For PKMYT1; 0.1235 µM: inhibition read 95.5%.
PKMYT1; 0.0005081 µM — inhibition: 9.88%.
The inhibition was 10.2% (PKMYT1; enzyme activity, inhibitor; 508.1 pM).
The inhibition was -0.5% and 1.74% (RKO; cell proliferation; 13.72 nM).
For PKMYT1; 0.004572 µM: inhibition read 50.6%.
The inhibition was 24.8% and 21.2% (Protein cereblon (CRBN, Homo sapiens, UniProt Q96SW2); binding; 1111.11 nM).
The inhibition was -26.9% and -31% and -22.3% (NCI-H1648; cell proliferation; 123.5 nM).

Set 3 — observed: thermal unfolding; method: differential scanning fluorimetry; concentration: 5.5 µM; direction: higher = more unfolded
SMILES: C[C@@H]1CN(c2ccc(-c3cc(C(=O)NCCOCCOCCOCCOCCOCCOCCNC(=O)/C=C/c4[nH]cc(C(=O)N[C@@H](CC(N)=O)c5ccc(F)c(Cl)c5)c4-c4ccc(Cl)cc4F)ccc3F)cc2NC(=O)c2ccc(F)cc2C(F)(F)F)C[C@H](C)N1C
WDR5: WD repeat-containing protein 5 (WDR5, Homo sapiens, UniProt P61964)
DCAF1: DDB1- and CUL4-associated factor 1 (DCAF1, Homo sapiens, UniProt Q9Y4B6)
Sequence of UniProt Q9Y4B6 (whole entry, looked up): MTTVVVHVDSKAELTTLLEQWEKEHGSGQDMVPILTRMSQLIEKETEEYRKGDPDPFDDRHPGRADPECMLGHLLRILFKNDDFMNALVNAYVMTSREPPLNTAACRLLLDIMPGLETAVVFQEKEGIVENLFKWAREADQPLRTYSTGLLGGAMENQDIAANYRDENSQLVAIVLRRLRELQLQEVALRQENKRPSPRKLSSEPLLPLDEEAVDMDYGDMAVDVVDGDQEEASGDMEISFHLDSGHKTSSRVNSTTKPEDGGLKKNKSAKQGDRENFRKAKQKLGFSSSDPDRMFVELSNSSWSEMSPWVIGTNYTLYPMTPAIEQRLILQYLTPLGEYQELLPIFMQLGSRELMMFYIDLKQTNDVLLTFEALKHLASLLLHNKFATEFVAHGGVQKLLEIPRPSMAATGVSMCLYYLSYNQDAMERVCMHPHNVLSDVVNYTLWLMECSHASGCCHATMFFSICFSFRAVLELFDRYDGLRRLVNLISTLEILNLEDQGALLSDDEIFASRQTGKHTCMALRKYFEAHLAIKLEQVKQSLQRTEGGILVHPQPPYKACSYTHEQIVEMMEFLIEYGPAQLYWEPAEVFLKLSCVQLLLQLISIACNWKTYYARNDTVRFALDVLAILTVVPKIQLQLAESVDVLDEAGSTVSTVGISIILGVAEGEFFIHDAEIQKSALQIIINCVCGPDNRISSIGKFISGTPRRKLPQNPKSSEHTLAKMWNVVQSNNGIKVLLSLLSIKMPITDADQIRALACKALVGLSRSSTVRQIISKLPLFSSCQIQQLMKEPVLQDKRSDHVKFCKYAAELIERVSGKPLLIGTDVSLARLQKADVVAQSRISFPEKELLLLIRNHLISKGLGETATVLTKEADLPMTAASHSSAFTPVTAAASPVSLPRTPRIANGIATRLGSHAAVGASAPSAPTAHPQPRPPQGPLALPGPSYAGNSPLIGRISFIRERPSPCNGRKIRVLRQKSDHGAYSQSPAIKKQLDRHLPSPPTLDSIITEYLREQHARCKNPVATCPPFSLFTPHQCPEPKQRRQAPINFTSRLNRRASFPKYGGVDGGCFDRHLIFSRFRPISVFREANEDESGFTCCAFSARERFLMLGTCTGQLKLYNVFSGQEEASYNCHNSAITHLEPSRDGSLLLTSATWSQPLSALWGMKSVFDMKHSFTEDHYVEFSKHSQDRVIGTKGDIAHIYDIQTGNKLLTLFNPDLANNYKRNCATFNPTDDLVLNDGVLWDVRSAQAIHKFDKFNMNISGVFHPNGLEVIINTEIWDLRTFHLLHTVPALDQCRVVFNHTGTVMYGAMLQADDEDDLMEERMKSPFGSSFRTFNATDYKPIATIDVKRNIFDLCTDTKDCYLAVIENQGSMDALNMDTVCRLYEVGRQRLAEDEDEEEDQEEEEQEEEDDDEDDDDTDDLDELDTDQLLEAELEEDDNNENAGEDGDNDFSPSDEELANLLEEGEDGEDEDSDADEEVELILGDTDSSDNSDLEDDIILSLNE
The “SYPRO Orange fluorescence” was 16800 a.u. (WDR5; 53.81 °C).
The “SYPRO Orange fluorescence” was 10100 a.u. (DCAF1; 35.6 °C).
WDR5; 48 °C — “SYPRO Orange fluorescence”: 15500 a.u.
It gave 14300 a.u. for “SYPRO Orange fluorescence” (DCAF1; 44.4 °C).
DCAF1; 83.81 °C — “SYPRO Orange fluorescence”: 37000 a.u.
For WDR5; 38.8 °C: “SYPRO Orange fluorescence” read 13900 a.u.
DCAF1; 38.8 °C — “SYPRO Orange fluorescence”: 11100 a.u.
DCAF1; 34.8 °C — “SYPRO Orange fluorescence”: 9830 a.u.
For DCAF1; 72.01 °C: “SYPRO Orange fluorescence” read 46300 a.u.
It gave 8220 a.u. for “SYPRO Orange fluorescence” (DCAF1; 29.4 °C).
The “SYPRO Orange fluorescence” was 33900 a.u. (DCAF1; 88.01 °C).

Single results of other studies
Under “log2 expression ratio”, `COCC1CC2C(CCC3(C)C(O)CCC23)c2ccc(O)cc21` (stereo not drawn) is recorded as 0 (A549; DNA microarray, item: CCL11; concentration not given; relative to: untreated A549 cells).
